{"data": "Published values of several laboratories", "note": "A part holds a random share of what one study measured.", "UniProt P28147, sequence (whole entry, looked up)": "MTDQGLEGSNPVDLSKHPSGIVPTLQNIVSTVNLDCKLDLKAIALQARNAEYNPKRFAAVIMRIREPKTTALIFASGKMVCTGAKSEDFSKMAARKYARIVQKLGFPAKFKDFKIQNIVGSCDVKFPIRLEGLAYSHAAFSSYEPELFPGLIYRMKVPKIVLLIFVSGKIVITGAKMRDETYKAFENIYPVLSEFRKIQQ"}
{"data": "Sample 1", "target": "Sal-like protein 4, full length isoform B (SALL4, Homo sapiens, UniProt Q9UJQ4-2, residues 1-616)", "method": "universal PBM", "form": "double-stranded DNA, one strand shown", "matrix": "in vitro", "concentration": "not given", "setting": "8-mer, flanks averaged, mean of replicates", "reading": "higher = stronger binding"}
{"Sequence": "GCGATCAA", "E-score": -0.0573}
{"Sequence": "ACATTTCC", "E-score": 0.018}
{"Sequence": "CTCTAGGC", "E-score": -0.231}
{"Sequence": "AACGCCAA", "E-score": 0.127}
{"data": "Sample 2", "target": "Histone acetyltransferase KAT6A, winged helix 2, GST fusion (KAT6A, Homo sapiens, UniProt Q92794, residues 85-181)", "method": "protein binding microarray", "form": "double-stranded DNA, one strand shown", "matrix": "in vitro", "concentration": "not given", "setting": "8-mer, flanks averaged, mean of 2 arrays, mostly near background", "baseline": "not given", "reading": "higher = stronger binding", "Target sequence (chain)": "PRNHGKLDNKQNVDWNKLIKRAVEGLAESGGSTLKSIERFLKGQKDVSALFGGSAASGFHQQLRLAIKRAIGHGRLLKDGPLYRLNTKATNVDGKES"}
{"Sequence": "GTAGCACA", "E-score": 0.0177}
{"Sequence": "GCACTAGC", "E-score": 0.0621}
{"Sequence": "ACTCCGCG", "E-score": 0.0509}
{"Sequence": "CGGGCGAC", "E-score": -0.0538}
{"data": "Mixed results", "MNT bHLH-zipper, MAX partner unstated": "Max-binding protein MNT, bHLH-zipper, MAX partner unstated (MNT, Homo sapiens, UniProt Q99583, residues 220-300)", "UniProt Q99583, sequence (220-300, looked up)": "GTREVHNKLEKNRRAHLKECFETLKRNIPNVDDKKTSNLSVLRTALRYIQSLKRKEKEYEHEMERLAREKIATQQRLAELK"}
{"Substance": "CGATCCAC", "target": "MNT bHLH-zipper, MAX partner unstated", "assay": "protein-binding microarray", "system": "double-stranded DNA, one strand shown, in vitro", "setting": "not given, k-mer, scored over probes, only values ≥0.25", "scale": "higher = stronger binding", "measurement": "E-score", "result": 0.272}
{"Substance": "PhoQ, residues 284 288 289 292 302 303 WVSSAF", "target": "PhoP, residues 12 14 15 18 19 LWHVM (Escherichia coli, UniProt P23836)", "assay": "Sort-seq, refers to: YFP reporter", "system": "E. coli", "setting": "PhoQ-PhoP variant library, added: 10 µM Mg2+", "scale": "baseline: high Mg2+ state, higher = stronger signaling", "measurement": "fold induction", "result": 4.89}
{"Substance": "CACCCACA", "target": "MNT bHLH-zipper, MAX partner unstated", "assay": "protein-binding microarray", "system": "double-stranded DNA, one strand shown, in vitro", "setting": "not given, k-mer, scored over probes, only values ≥0.25", "scale": "higher = stronger binding", "measurement": "E-score", "result": 0.285}
{"Substance": "TAGATAA", "target": "TATA-box-binding protein 1 (TBP1, Arabidopsis thaliana, UniProt P28147, residues 1-200, full length assumed)", "assay": "protein-binding microarray", "system": "double-stranded DNA, one strand shown, in vitro", "setting": "not given, k-mer, scored over probes, only values ≥0.25", "scale": "higher = stronger binding", "measurement": "E-score", "result": 0.298}
